Results gathered from unrelated publications.
Compare with care: the assays were run in different laboratories. Several values in a cell are separate wells, animals, samples, runs or records. Numbers after ± are the reported error.

O=C(OCc1cccc(O)c1O)c1ccc(O)c(CO)c1  contractile response (C57BL/6J mice, aortic rings; dose not given, angiotensin II infusion, together with: phenylephrine): no effect
CCCC[C@H](NC(=O)[C@@H](NC(=O)[C@H](CC(=O)O)NC(=O)[C@H](CCC(N)=O)NC(=O)[C@H](CC(C)C)NC(=O)[C@H](CC(C)C)NC(=O)[C@H](CCCN)NC(=O)[C@H](CCCNC(=N)N)NC(=O)[C@H](C)NC(=O)[C@H](CO)NC(=O)[C@H](CC(C)C)NC(=O)[C@H](CCC(N)=O)NC(=O)[C@H](CC)NC(=O)[C@H](CC(C)C)NC(=O)[C@@H](NC(=O)[C@H](CCCN)NC(=O)[C@H](CCCNC(=N)N)NC(=O)[C@H](Cc1ccc(O)cc1)NC(=O)[C@H](CO)NC(=O)[C@H](CC(N)=O)NC(=O)[C@@H](NC(=O)[C@H](Cc1ccccc1)NC(=O)[C@@H](NC(=O)[C@H](C)NC(=O)[C@H](CC(=O)O)NC(=O)[C@@H](C)NC(=O)[C@H](Cc1ccc(O)cc1)NC)[C@@H](C)CC)[C@@H](C)O)C(C)C)[C@@H](C)CC)C(=O)N[C@@H](CC(=O)O)C(=O)NCCCCNC(=N)N  serum GH level (GH release, ELISA; male Sprague-Dawley rat, anaesthetised, serum; subcutaneous, 3 µg/kg, 30 min): 141 ± 12.3 ng/mL
CCCOC(=O)Cc1c(C)n(C(=O)c2ccc(Cl)cc2)c2ccc(OC)cc12  writhing count (BALB/c mice, acetic acid writhing; intraperitoneal, 30 mg/kg, 20 min count): 7.5 ± 2.04
COc1ccc(-c2nnc(COc3cc(-c4nc5ccccc5s4)ccc3OC)o2)cc1OC  locomotor activity reduction (actophotometer; mouse; 100 mg/kg, 5 min; relative to: before treatment): 2.68%
CCS(=O)(=O)c1ccccc1C(=O)N1CCN(c2nc3ccc(F)cc3s2)C[C@@H]1C  anandamide level (mouse, brain; 30 mg/kg): no effect
CCCCCCOC(=O)Cc1c(C)n(C(=O)c2ccc(Cl)cc2)c2ccc(OC)cc12  analgesia (acetic acid writhing test; BALB/c mouse; intraperitoneal, 30 mg/kg; relative to: negative control): 73.3%
Clc1ccc2ccc3[n+](c2c1)[Ir-3]12([c]4ccccc4-3)([c]3ccccc3-c3ccc4ccc(Cl)cc4[n+]31)[n+]1ccccc1-c1cccc[n+]12.F[P-](F)(F)(F)(F)F  lung metastasis incidence (BALB/c mice, 4T1 allograft; 1, 2, 4 mg/kg; relative to: untreated): decreased
Cc1ccc(-c2oc3ccccc3c(=O)c2OCc2ccccc2)cc1  serum alanine aminotransferase (diabetic rat; 7.5 mg/kg, p-nitrophenyl β-glucoside induced): 33.8 ± 2.43 IU
Clc1ccc(C(c2c[nH]c3ccccc23)c2c[nH]c3ccccc23)cc1  loss of TH+ fibres (mice, MPTP/probenecid Parkinson model, striatum; oral, 25 mg/kg daily, 14 days; relative to: saline control): 62.9% and 63%
CCCC[C@H](NC(=O)[C@@H](NC(=O)[C@H](CC(=O)O)NC(=O)[C@H](CCC(N)=O)NC(=O)[C@H](CC(C)C)NC(=O)[C@H](CC(C)C)NC(=O)[C@H](CCCN)NC(=O)[C@H](CCCNC(=N)N)NC(=O)[C@H](C)NC(=O)[C@H](CO)NC(=O)[C@H](CC(C)C)NC(=O)[C@H](CCC(N)=O)NC(=O)[C@H](CC)NC(=O)[C@H](CC(C)C)NC(=O)[C@@H](NC(=O)[C@H](CCCN)NC(=O)[C@H](CCCNC(=N)N)NC(=O)[C@H](Cc1ccc(O)cc1)NC(=O)[C@H](CO)NC(=O)[C@H](CCC(N)=O)NC(=O)[C@@H](NC(=O)[C@H](Cc1ccccc1)NC(=O)[C@@H](NC(=O)[C@H](C)NC(=O)[C@H](CC(=O)O)NC(=O)[C@@H](C)NC(=O)CCc1ccc(O)cc1)[C@@H](C)CC)[C@@H](C)O)C(C)C)[C@@H](C)CC)C(=O)N[C@@H](CC(=O)O)C(=O)N[C@@H](CCCNC(=N)N)C(=O)NC  serum GH level (GH release, ELISA; male Sprague-Dawley rat, anaesthetised, serum; subcutaneous, 3 µg/kg, 0 min): 37.6 ± 15.5 ng/mL
CN(C)c1ccc(-c2oc3ccccc3c(=O)c2OCc2ccccc2)cc1  serum LDL cholesterol (diabetic rat; 7.5 mg/kg, 28 days, p-nitrophenyl β-glucoside induced): 110 ± 3.31 mg/dL
[2H]C([2H])([2H])C(c1cc2nnc(-c3cc(F)ccc3F)n2nc1OCc1ncnn1C)(C([2H])([2H])[2H])C([2H])([2H])[2H]  seizure severity change (amygdala-kindled Wistar rats; oral, 6 mg/kg, 2 h before stimulation, Racine scale, unit not given; relative to: baseline): -3.2
CC[C@H]1[C@@H](O)[C@@H]2[C@H](CC[C@]3(C)[C@@H]([C@H](C)CCOS(=O)(=O)[O-])CC[C@@H]23)[C@@]2(C)CC[C@@H](O)C[C@@H]12.[Na+]  ballooning score (histology; ob/ob NASH mouse model, liver; oral, 10 mg/kg once daily, 8 weeks, scale 0 to 2; direction not given): 0.2 ± 0.1
CCNC(=O)[C@@H]1CCCN1C(=O)[C@H](CCCNC(=N)N)NC(=O)[C@H](CC(C)C)NC(=O)[C@@H](CC(C)C)NC(=O)[C@H](Cc1ccc(O)cc1)NC(=O)[C@H](CO)NC(=O)[C@H](Cc1c[nH]c2ccccc12)NC(=O)[C@H](Cc1c[nH]cn1)NC(=O)[C@@H]1CCC(=O)N1  duration of testosterone suppression (Sprague-Dawley rat, serum; subcutaneous, 100 µg/kg/day, 35 days): 35 days
COc1ccc2c(c1)c(CC(=O)OCC(=O)OC(C)(C)C)c(C)n2C(=O)c1ccc(Cl)cc1  latency of nociceptive response (hot plate test; BALB/c mice; 75 mg/kg, 30 min): 14.8 ± 0.53 s
COc1c2c(cc3oc(C)cc(=O)c13)O[C@H](C(C)(C)O[C@@H]1O[C@H](CO)[C@@H](O)[C@H](O)[C@H]1O)C2  ear edema weight increase (mouse, xylene ear edema; oral, 2 mg/kg): 6.42 ± 0.23 mg
Cc1cc2c(cc1C1(c3ncc(C(=O)O)cn3)CC1)C(C)(C)CCC2(C)C  log2 fold change (RNA sequencing, refers to: Acot1 mRNA; rat, brain; dose not given, 24 h, single dose; relative to: vehicle): -0.65
CCCC[C@H](NC(=O)[C@@H](NC(=O)[C@H](CC(=O)O)NC(=O)[C@H](CCC(N)=O)NC(=O)[C@H](CC(C)C)NC(=O)[C@H](CC(C)C)NC(=O)[C@H](CCCN)NC(=O)[C@H](CCCNC(=N)N)NC(=O)[C@H](C)NC(=O)[C@H](CO)NC(=O)[C@H](CC(C)C)NC(=O)[C@H](CCC(N)=O)NC(=O)[C@H](CC)NC(=O)[C@H](CC(C)C)NC(=O)[C@@H](NC(=O)[C@H](CCCN)NC(=O)[C@H](CCCNC(=N)N)NC(=O)[C@H](Cc1ccc(O)cc1)NC(=O)[C@H](CO)NC(=O)[C@H](CCC(N)=O)NC(=O)[C@@H](NC(=O)[C@H](Cc1ccccc1)NC(=O)[C@@H](NC(=O)[C@H](C)NC(=O)[C@H](CC(=O)O)NC(=O)[C@H](C)NC(=O)CCc1ccc(O)cc1)[C@@H](C)CC)[C@@H](C)O)C(C)C)[C@@H](C)CC)C(=O)N[C@@H](CC(=O)O)C(=O)NCCCCNC(=N)N  serum GH level (GH release, ELISA; male Sprague-Dawley rat, anaesthetised, serum; subcutaneous, 3 µg/kg, 15 min): 230 ± 15.1 ng/mL
CCCCSc1nnc(-c2ccc(N)cc2)o1  DPPH radical scavenging (IC50): 48.5%
CCCCCCCCCCCCCCCC(=O)N[C@@H](CCC(=O)NCCCC[C@H](NC(=O)[C@H](CC(=O)O)NC(=O)[C@H](CO)NC(=O)[C@@H](NC(=O)[C@H](Cc1ccccc1)NC(=O)[C@@H](NC(=O)CNC(=O)[C@H](CCC(N)=O)NC(=O)[C@H](CO)NC(=O)[C@@H](N)Cc1c[nH]cn1)[C@@H](C)O)[C@@H](C)O)C(=O)N[C@@H](CO)C(=O)N[C@@H](CCC(=O)O)C(=O)N[C@@H](Cc1ccc(O)cc1)C(=O)N[C@@H](CC(C)C)C(=O)N[C@@H](CC(=O)O)C(=O)N[C@@H](CO)C(=O)N[C@@H](CCC(=O)O)C(=O)N[C@@H](CCCNC(=N)N)C(=O)N[C@@H](C)C(=O)N[C@@H](CCCNC(=N)N)C(=O)N[C@@H](CC(=O)O)C(=O)N[C@@H](Cc1ccccc1)C(=O)N[C@H](C(=O)N[C@@H](C)C(=O)N[C@@H](Cc1c[nH]c2ccccc12)C(=O)N[C@@H](CC(C)C)C(=O)N[C@@H](CCC(=O)O)C(=O)N[C@@H](C)C(=O)NCC(=O)NCC(=O)O)C(C)C)C(=O)O  body weight loss (female cynomolgus monkey; subcutaneous, 16 nmol/kg/day for 8 weeks, day 57; relative to: starting body weight): 11%
COc1ccc(-c2oc3ccccc3c(=O)c2OCc2ccccc2)cc1  serum alkaline phosphatase (diabetic rat; 5 mg/kg, p-nitrophenyl β-glucoside induced): 198 ± 4.71 IU
COc1ccc(C2CC(c3ccc(C)cc3)=Nc3ccccc3S2)cc1 (stereo not shown)  blood glucose (rat, normal, overnight fasted; oral, 20 mg/kg, 30 min, oral glucose tolerance test, together with: glucose 3 g/kg oral): 116 ± 4.45 mg/dL

For quick reference, copied from above:
CCCC[C@H](NC(=O)[C@@H](NC(=O)[C@H](CC(=O)O)NC(=O)[C@H](CCC(N)=O)NC(=O)[C@H](CC(C)C)NC(=O)[C@H](CC(C)C)NC(=O)[C@H](CCCN)NC(=O)[C@H](CCCNC(=N)N)NC(=O)[C@H](C)NC(=O)[C@H](CO)NC(=O)[C@H](CC(C)C)NC(=O)[C@H](CCC(N)=O)NC(=O)[C@H](CC)NC(=O)[C@H](CC(C)C)NC(=O)[C@@H](NC(=O)[C@H](CCCN)NC(=O)[C@H](CCCNC(=N)N)NC(=O)[C@H](Cc1ccc(O)cc1)NC(=O)[C@H](CO)NC(=O)[C@H](CCC(N)=O)NC(=O)[C@@H](NC(=O)[C@H](Cc1ccccc1)NC(=O)[C@@H](NC(=O)[C@H](C)NC(=O)[C@H](CC(=O)O)NC(=O)[C@@H](C)NC(=O)CCc1ccc(O)cc1)[C@@H](C)CC)[C@@H](C)O)C(C)C)[C@@H](C)CC)C(=O)N[C@@H](CC(=O)O)C(=O)N[C@@H](CCCNC(=N)N)C(=O)NC  serum GH level (GH release, ELISA; male Sprague-Dawley rat, anaesthetised, serum; subcutaneous, 3 µg/kg, 0 min): 37.6 ± 15.5 ng/mL
CN(C)c1ccc(-c2oc3ccccc3c(=O)c2OCc2ccccc2)cc1  serum LDL cholesterol (diabetic rat; 7.5 mg/kg, 28 days, p-nitrophenyl β-glucoside induced): 110 ± 3.31 mg/dL
[2H]C([2H])([2H])C(c1cc2nnc(-c3cc(F)ccc3F)n2nc1OCc1ncnn1C)(C([2H])([2H])[2H])C([2H])([2H])[2H]  seizure severity change (amygdala-kindled Wistar rats; oral, 6 mg/kg, 2 h before stimulation, Racine scale, unit not given; relative to: baseline): -3.2
